Measurements of several laboratories.
Each numbered part is a random draw from the data of one study; scales do not carry over between parts.

Set 1
Target: Ras GTPase-activating protein-binding protein 1, RRM domain (G3BP1, Homo sapiens, UniProt Q13283)
Chain of UniProt Q13283 (whole entry, looked up): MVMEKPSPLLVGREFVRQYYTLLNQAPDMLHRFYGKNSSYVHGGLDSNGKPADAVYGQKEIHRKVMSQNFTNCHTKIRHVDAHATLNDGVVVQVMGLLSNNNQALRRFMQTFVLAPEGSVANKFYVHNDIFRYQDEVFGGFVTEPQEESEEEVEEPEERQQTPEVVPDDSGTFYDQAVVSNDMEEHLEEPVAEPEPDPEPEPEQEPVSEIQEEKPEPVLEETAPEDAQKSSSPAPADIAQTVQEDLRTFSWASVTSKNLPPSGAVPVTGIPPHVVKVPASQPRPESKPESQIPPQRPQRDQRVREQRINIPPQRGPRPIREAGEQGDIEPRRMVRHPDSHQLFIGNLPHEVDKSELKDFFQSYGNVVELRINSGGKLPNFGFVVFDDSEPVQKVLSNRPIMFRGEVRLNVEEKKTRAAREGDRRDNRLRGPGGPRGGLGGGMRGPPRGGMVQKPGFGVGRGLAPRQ
Technique: RNA Bind-n-Seq
Form: RNA
Sample: in vitro
Tested at: 1 µM
Notes: whole 134-nt RNA, ends assumed
With: 150 mM KCl
Relative to: input library
Direction: higher = stronger binding
`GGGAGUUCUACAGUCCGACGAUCUAACUUUAGAGGAGGAUCUGAUGGAUAAGGCAGUGGACGUGGAUUUGGGGAUGGCUAUAAUGGGUAUGGAGGAGGACCUGGAGGUGGCAAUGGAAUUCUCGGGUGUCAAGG` has a log2 enrichment of -0.694.
`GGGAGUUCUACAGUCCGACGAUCUGGGAGGUGGAUUUUGUUUAUUUUUUUGGCUCAUUUCCAGGGGUGGGAAUUUUUUUUUAAUAUGUGUCAUGAAUAAAGUUGUUUUUGAAAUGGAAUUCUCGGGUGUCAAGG` has a log2 enrichment of 2.1.
The log2 enrichment of `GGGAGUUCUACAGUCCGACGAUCUGGGAGGUGGAUUUUGUUUAUUUUUUUAGCUCAUUUCCAGGGGUGGGAAUUUUUUUUAAAUAUGUGUCAUGAAUAAAGUUGUUUUUGAAAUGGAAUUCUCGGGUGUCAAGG` is reported as 1.94.
`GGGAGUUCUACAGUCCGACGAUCAAGUCCUGUGCUACACAUCGUAUGUACCGAAUCGGGGAAAGGGGUUUGGGGUGGGGAAAGUAUUAUGUUACGCCGUUCGGAUCUGCACUUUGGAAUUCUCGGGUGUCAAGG` gave a log2 enrichment of 1.36.
The log2 enrichment of `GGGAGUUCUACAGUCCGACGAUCUCAAGUCCUGUGCUACACAUCGUAUGUACCGAAUCGGAAAAAGGAAAAAGGUGGAAAGUAUUAUGUUACGCCGUUCGGAUCUGCACUUCCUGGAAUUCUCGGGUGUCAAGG` is reported as -0.0936.
The log2 enrichment of `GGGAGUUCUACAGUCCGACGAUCAGUCCUGUGCUACACAUCGUAUGUACCGAAUCGGGGUUUGGGGAGGGGUUUUUGGGGAAAGUAUUAUGUUACGCCGUUCGGAUCUGCACUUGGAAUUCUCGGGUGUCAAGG` is reported as 0.923.
With `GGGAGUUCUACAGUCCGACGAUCGCAGGAAGUAAAAACAAAUGGAAAUGCUUAGGAUAGUGGCAGGGGUGGGGGUUGCUAAGGAAAGGGUGGGAUGGGAGUGGGUAAAGAGUUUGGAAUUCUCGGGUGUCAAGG` the log2 enrichment was 1.52.
With `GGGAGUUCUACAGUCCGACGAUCUGUGCUACACAUCGUAUGUACCGAAUCGGGGAAAAAAAGGGGUUUUUGGGGUUUUUUUGGGGAAAGUAUUAUGUUACGCCGUUCGGAUCUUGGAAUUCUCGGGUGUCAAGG` the log2 enrichment was 1.21.
With `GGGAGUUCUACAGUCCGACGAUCUGGGAGGUGGAUUUUGUUUAUUUUUUUAGCUCAUUUCCAGGGGUGGAAAUUUUUUUUUAAUAUGUGUCAUGAAUAAAGUUGUUUUUGAAAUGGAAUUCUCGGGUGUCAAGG` the log2 enrichment was 1.51.

Set 2
Target: RING finger protein unkempt homolog, zinc fingers 1-6, GST-SBP tag (UNK, Homo sapiens, UniProt Q9C0B0, residues 30-357)
Chain of UniProt Q9C0B0 (30-357, looked up): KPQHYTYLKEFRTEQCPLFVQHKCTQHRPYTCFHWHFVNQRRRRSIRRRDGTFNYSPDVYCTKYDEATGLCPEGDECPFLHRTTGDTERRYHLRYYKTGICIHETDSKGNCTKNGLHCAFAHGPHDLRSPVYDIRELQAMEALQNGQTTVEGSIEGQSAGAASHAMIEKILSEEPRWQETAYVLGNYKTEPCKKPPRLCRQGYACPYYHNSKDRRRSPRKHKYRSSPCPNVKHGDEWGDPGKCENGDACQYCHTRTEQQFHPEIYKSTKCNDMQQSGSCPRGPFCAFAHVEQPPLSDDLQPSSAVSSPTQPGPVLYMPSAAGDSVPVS
Technique: RNA Bind-n-Seq
Form: RNA
Sample: in vitro
Tested at: not given
Notes: RNA with constant flanks, ends assumed
Relative to: input RNA pool
Direction: higher = stronger binding
`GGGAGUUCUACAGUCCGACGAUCUCUGCGGAAGUCCCCGAGGCAGCCUCCGCGGAGGAGCAGAAGGAAAUGGAAGAUAAAGUGACCCGUCCAGAGAAAGCAGAAGAAGCAAAAUUAAAAGCAAGAUAUCCUCAUCUGGGACAACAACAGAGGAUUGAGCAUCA` has a bound/input enrichment of 0.332 ratio.
For `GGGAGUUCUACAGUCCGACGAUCCGUACAACUAGAGGAAAGCGGAAGAGGGUUGAUGUGGAAGAAUCAGAGGCGAGUAGCCGUGUCCGCAUCUCUCAUUCCGCCUCAGCCACUGGAAAUGUUUGCAUCGAAGAAAUUGAUGUUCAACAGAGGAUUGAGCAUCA`, the bound/input enrichment was 0.141 ratio.
The bound/input enrichment of `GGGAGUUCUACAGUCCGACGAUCGGAGCCAGACAUAUGGAAAGUGAGAAACUUGCUCAAAUAUUGGCAGCUAGACAGUCCGAAAUUAAACAGAUUCCAUCUGAUGGCCACUGUAUGUAUAAAGCCAUUGAAGAUCAACUGAAACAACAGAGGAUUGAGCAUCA` is reported as 0.202 ratio.
For `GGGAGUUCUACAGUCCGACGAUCAACUGCAUCUGUGAUAUCGAUCACUGUUCCAACAUGGCACCCCUCUACAGUGACUCCUACUCCGUCUUCUGGGCCAUUUUCAACCUGGUGACCUUUGUGGUCAUGGUGGUUCUCUACGCUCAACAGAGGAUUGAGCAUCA`, the bound/input enrichment was 0.164 ratio.
For `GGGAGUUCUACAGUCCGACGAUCAGAUUCCCCCUCCUGAGACCUCCUCCGAAGUUGGAGUCUCUUACAGAUGCCUCAUCCCCUGUCCGCGUUUUAGUUUGGACCACCCAGCCUUGGACAAUUCCCGCCAACCAGGCAAUUUGCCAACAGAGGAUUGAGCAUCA`, the bound/input enrichment was 0.63 ratio.
`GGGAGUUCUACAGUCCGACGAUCGGUGAUUAUAGCAAUCAGCAGAGUGGUUAUGGGAAAGUAUCCAGGCGAGGUGGACAUCAAAACCGCUACAAACCAUACUAAAUUAUUCCAUUUGCAACUUAUCCCCAACAGGUGGUGAAGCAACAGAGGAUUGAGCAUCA` has a bound/input enrichment of 0.349 ratio.

Set 3
Target: RNA binding protein fox-1 homolog 2, RRM domain, GST-SBP tag (RBFOX2, Homo sapiens, UniProt O43251-10, residues 100-194)
Technique: RNA Bind-n-Seq
Form: RNA
Sample: in vitro
Tested at: 365 nM
Notes: natural RNA segment, single round, ends assumed
Relative to: no-protein control
Direction: higher = stronger binding
Target sequence (chain): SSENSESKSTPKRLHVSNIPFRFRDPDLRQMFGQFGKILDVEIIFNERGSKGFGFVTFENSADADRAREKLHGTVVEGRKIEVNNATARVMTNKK
`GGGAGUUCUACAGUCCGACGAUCGUGUGUGUGUGUGUGAGCGAGCAUGUGCUGUCUGCAUAUGGAAAUAACUACAGCACAGGCUACCUUGCUGAUGUGUCCAUGUCACUGGUCUCCCUUUUAGCUAAAAUCUGUGGAAUUCUCGGGUGCCAA`: “RBNS enrichment (R)” 1.34.
`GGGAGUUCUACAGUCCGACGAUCUUUGUUCUCAGCAUUUUCCUUUCUCUGUGAUCAUUGGCAUCCUGGGCGUUUCUUGCCCUCUGCUGACUACUGAUUGGAUUUUACCUAUGGCUUUCUGCAACUUGCUACUCUGGAAUUCUCGGGUGCCAA`: “RBNS enrichment (R)” 0.417.
`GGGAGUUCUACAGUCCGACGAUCAGAUGGAGAUGAGGUACAUCAGGGGACCUUAAGAUGCCUGAGCCCAUCUUUUAACUCUAACACAGGGAUACUAACCUUUUUCCCUGGCUAAGACAGACUGAGGGCAUUGCUGGAAUUCUCGGGUGCCAA` — result for “RBNS enrichment (R)”: 0.426.
`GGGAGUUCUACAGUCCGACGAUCUCCUCCCAGGAGGGAGGAGGGUGCGGCCCUCUCCCUGCAGGGGGAUCUGGGGACCCUCUCCCCGGCUGCCUCAGGCUUCUCCCACGAAGAGGAAACGCAAAAAAAGAAAAUGGAAUUCUCGGGUGCCAA`: “RBNS enrichment (R)” 0.308.
For `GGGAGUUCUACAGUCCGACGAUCAUAGCACCUGACAGAAUACUUCUCCUCUUCCUCACCUUCGGGUGCCUCUAGACACUUGACUUACGAUCGUUAUUCCCCCAAUUCAUCAUAUUUUGUUUGUUAUCACCAGAUGGAAUUCUCGGGUGCCAA`, “RBNS enrichment (R)” read 1.25.
`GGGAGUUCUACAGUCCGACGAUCAAACUGGCUCAGAUGUUUAUAAGUCAAGAGGAAAGCGGCACAGAGAACAGCACAGUGAAGAGUGAAAUGGAGAAAACUCUCACGGUGAAGCAGCUGUUGGAACUCCUGGUUGGAAUUCUCGGGUGCCAA` — result for “RBNS enrichment (R)”: 0.638.
`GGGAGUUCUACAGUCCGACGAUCACCCUCAGGUCUCCUACACUGGCCCCAUUUUACUUUGGGGUCCAAGGACAGGAUGGUCAACAGGGCAGGGUGGACAGCGUGCCAGCGCCGCGCAGGGCCACCUCCCUGGGUGGAAUUCUCGGGUGCCAA`: “RBNS enrichment (R)” 0.242.
`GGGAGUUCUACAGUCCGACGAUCCUAUCAGAAGAAAACUGUUGUUUGCCUUUCAACCUUGUUUUACAGUUCUGCAGUGUAAUGGAGGACGGGCAACGUGCAUGUGCAGGCUCACCACUCCCAGGCCUCUGACAUGGAAUUCUCGGGUGCCAA`: “RBNS enrichment (R)” 11.8.
`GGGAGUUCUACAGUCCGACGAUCCCGGAGGCAGCUUUUUUGAGCACGAGGGUCGCCCUUUGUGUGAAAACCAUUUCCAUGCUCAGCGUGGUUCGCUGUGUGCCACGUGUGGUCUCCCAGUGACCGGCCGCUGUUGGAAUUCUCGGGUGCCAA` — result for “RBNS enrichment (R)”: 0.266.

Set 4
Target: Prothrombin, mature alpha-thrombin (F2, Homo sapiens, UniProt P00734)
Technique: aptamer microarray, sandwich
Form: DNA with 2'F-ANA
Sample: in vitro
Tested at: 200 nM
Notes: whole 15-mer aptamer, many near background
With: Cy3 exosite-II aptamer, 400 nM
Direction: higher = stronger binding
Strand: GGTTGGTGTGGTTGG
`2'F-ANA at 1 3 6 8 10`: “mean fluorescence intensity” 78.1 a.u.
`2'F-ANA at 1 2 3 4 5 7 9 11 12 14`: “mean fluorescence intensity” 48.1 a.u.
For `2'F-ANA at 4 6 8 9 11 13`, “mean fluorescence intensity” read 162 a.u.
For `2'F-ANA at 1 11 12 13`, “mean fluorescence intensity” read 323 a.u.
`2'F-ANA at 5 6 7 8 9 11 14` — result for “mean fluorescence intensity”: 68.3 a.u.
Under “mean fluorescence intensity”, `2'F-ANA at 2 3 4 6 9 10 14` is recorded as 173 a.u.
`2'F-ANA at 2 4 5 7 8 9 10 11 12 14` — result for “mean fluorescence intensity”: 46.7 a.u.
For `2'F-ANA at 2 10 12 14 15`, “mean fluorescence intensity” read 91 a.u.
`2'F-ANA at 2 3 4 5 6 7 9 10 11`: “mean fluorescence intensity” 73.3 a.u.
Under “mean fluorescence intensity”, `2'F-ANA at 2 5 6 8 9 12 13 14 15` is recorded as 48.1 a.u.
For `2'F-ANA at 3 4 6 7 8 10 11 12 13 14 15`, “mean fluorescence intensity” read 161 a.u.
`2'F-ANA at 2 3 7 9 13`: “mean fluorescence intensity” 701 a.u.
For `2'F-ANA at 1 3 8 10 12 13 15`, “mean fluorescence intensity” read 112 a.u.
Under “mean fluorescence intensity”, `2'F-ANA at 1 4 6 7 9 13 14` is recorded as 211 a.u.
`2'F-ANA at 3 5 7 9 11 12 14 15` — result for “mean fluorescence intensity”: 80.2 a.u.
`2'F-ANA at 1 2 3 4 5 7 9 10 11 12 13`: “mean fluorescence intensity” 49.2 a.u.
For `2'F-ANA at 8 10`, “mean fluorescence intensity” read 172 a.u.
For `2'F-ANA at 5 7 8 10 11 12 13`, “mean fluorescence intensity” read 74.5 a.u.
`2'F-ANA at 1 2 3 4 6 7 8 9 12 14 15` — result for “mean fluorescence intensity”: 77.1 a.u.
Under “mean fluorescence intensity”, `2'F-ANA at 1 3 6 8 10 11 13 15` is recorded as 68.9 a.u.
Under “mean fluorescence intensity”, `2'F-ANA at 5 6 8 13` is recorded as 56.7 a.u.
For `2'F-ANA at 2 5 9 10 14`, “mean fluorescence intensity” read 43.8 a.u.
`2'F-ANA at 1 5 8 12 13 14 15`: “mean fluorescence intensity” 46.4 a.u.
`2'F-ANA at 4 6 11 14`: “mean fluorescence intensity” 78.6 a.u.

Excerpt of the above (set 4):
For `2'F-ANA at 4 6 8 9 11 13`, “mean fluorescence intensity” read 162 a.u.
`2'F-ANA at 2 4 5 7 8 9 10 11 12 14` — result for “mean fluorescence intensity”: 46.7 a.u.
For `2'F-ANA at 8 10`, “mean fluorescence intensity” read 172 a.u.
Under “mean fluorescence intensity”, `2'F-ANA at 1 3 6 8 10 11 13 15` is recorded as 68.9 a.u.
For `2'F-ANA at 5 7 8 10 11 12 13`, “mean fluorescence intensity” read 74.5 a.u.
